Measured values gathered from unrelated publications.
Numbered parts are unrelated; each lists some results of a single study.

Set 1 — technique: universal PBM; molecule type: double-stranded DNA, one strand shown; medium: in vitro; tested at: not given; direction: higher = stronger binding
Target: Sal-like protein 4, full length isoform B (SALL4, Homo sapiens, UniProt Q9UJQ4-2, residues 1-616)
Notes: 8-mer, flanks averaged, mean of replicates
The E-score of `AACGGAAG` is reported as 0.01.
For `GTCTCCGA`, the E-score was -0.158.
`CGCTCGTA` has an E-score of -0.0889.
With `CCTTAAGA` the E-score was 0.126.
`ACCTGCCG` gave an E-score of -0.233.

Set 2 — technique: protein binding microarray; molecule type: double-stranded DNA, one strand shown; medium: in vitro; tested at: not given; reference: not given; direction: higher = stronger binding
Target: Histone acetyltransferase KAT6A, winged helix 2, GST fusion (KAT6A, Homo sapiens, UniProt Q92794, residues 85-181)
Notes: 8-mer, flanks averaged, mean of 2 arrays, mostly near background
Residues (chain): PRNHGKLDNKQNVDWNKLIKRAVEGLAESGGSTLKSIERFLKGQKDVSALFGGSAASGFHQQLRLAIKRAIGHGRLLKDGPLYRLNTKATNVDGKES
With `GCAAGTAA` the E-score was -0.0345.
With `CGTCGACC` the E-score was 0.125.
`CGTGTTGC` gave an E-score of 0.135.
With `AACTGACG` the E-score was -0.0264.
`CCTTACAA` has an E-score of -0.0182.
The E-score of `CCCGCTAG` is reported as 0.175.
`CAAATTCG` gave an E-score of 0.112.

Set 3 — technique: RNA Bind-n-Seq; molecule type: RNA; medium: in vitro; tested at: 200 nM; notes: whole 134-nt RNA, ends assumed; added: 150 mM LiCl; reference: input library; direction: higher = stronger binding; each molecule: 7-deaza-guanosine replaces G
Target: Ras GTPase-activating protein-binding protein 1, full length (G3BP1, Homo sapiens, UniProt Q13283)
Chain of UniProt Q13283 (whole entry, looked up): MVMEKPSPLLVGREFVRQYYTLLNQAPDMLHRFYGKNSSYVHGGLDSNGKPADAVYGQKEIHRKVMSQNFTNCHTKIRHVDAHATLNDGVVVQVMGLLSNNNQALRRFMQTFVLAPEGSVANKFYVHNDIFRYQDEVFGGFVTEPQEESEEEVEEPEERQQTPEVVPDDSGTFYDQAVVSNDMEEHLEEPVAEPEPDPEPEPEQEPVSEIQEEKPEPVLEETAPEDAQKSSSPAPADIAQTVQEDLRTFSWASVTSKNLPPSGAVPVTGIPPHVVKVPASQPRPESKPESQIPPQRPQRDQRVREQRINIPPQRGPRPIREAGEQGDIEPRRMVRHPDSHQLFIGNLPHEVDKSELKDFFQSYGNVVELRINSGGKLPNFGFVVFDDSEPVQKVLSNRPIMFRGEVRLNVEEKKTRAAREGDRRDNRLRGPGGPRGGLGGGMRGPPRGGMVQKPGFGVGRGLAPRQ
`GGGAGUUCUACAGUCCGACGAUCCAAGUCCUGUGCUACACAUCGUAUGUACCGAAUCGGAAAAGGGAAAAGGAAAAGGAAAGUAUUAUGUUACGCCGUUCGGAUCUGCACUUCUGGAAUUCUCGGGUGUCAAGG` gave a log2 enrichment of -0.718.
The log2 enrichment of `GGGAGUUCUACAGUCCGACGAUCCUGUGCUACACAUCGUAUGUACCGAAUCGGGGCCCCCCCGGGGCCCCCCCGGCCCCCCCGGGAAAGUAUUAUGUUACGCCGUUCGGAUCUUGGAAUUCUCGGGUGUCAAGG` is reported as -0.0351.
With `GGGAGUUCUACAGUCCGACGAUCAAGUCCUGUGCUACACAUCGUAUGUACCGAAUCGGGGUGGGGUGGGGUUUUUGGGGAAAGUAUUAUGUUACGCCGUUCGGAUCUGCACUUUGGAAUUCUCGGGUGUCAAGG` the log2 enrichment was -0.497.
`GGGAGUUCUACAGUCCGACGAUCUCAAGUCCUGUGCUACACAUCGUAUGUACCGAAUCGGGGAAAGGAAAGGAAAGGGAAAGUAUUAUGUUACGCCGUUCGGAUCUGCACUUCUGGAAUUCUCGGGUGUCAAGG` gave a log2 enrichment of -0.196.
With `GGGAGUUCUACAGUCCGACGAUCUCCUGUGCUACACAUCGUAUGUACCGAAUCGGGGUUUGGGGUUUUUGGGGAAAAAGGGGAAAGUAUUAUGUUACGCCGUUCGGAUCUGCAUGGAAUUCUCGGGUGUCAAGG` the log2 enrichment was 0.0674.

Mixed results
For `PhoQ, residues 284 288 289 292 302 303 ASTSDA`, the fold induction was 1.92 (PhoP, residues 12 14 15 18 19 AGCRL (Escherichia coli, UniProt P23836); Sort-seq, measured: YFP reporter; E. coli; PhoQ-PhoP variant library, added: 10 µM Mg2+; reference: high Mg2+ state, higher = stronger signaling).
